Measurements of several laboratories.
Compare with care: the assays were run in different laboratories. “And” joins repeats or separate records; there may be more than shown. Numbers after ± are the reported error.

COc1ccc2c(c1)c(CC(=O)OCC(=O)c1ccccc1)c(C)n2C(=O)c1ccc(Cl)cc1 gave an analgesia of 71.1% (acetic acid writhing test; BALB/c mouse; intraperitoneal, 20 mg/kg; baseline: negative control).
Under “serum GH level”, CCCC[C@H](NC(=O)[C@@H](NC(=O)[C@H](CC(=O)O)NC(=O)[C@H](CCC(N)=O)NC(=O)[C@H](CC(C)C)NC(=O)[C@H](CC(C)C)NC(=O)[C@H](CCCN)NC(=O)[C@H](CCCNC(=N)N)NC(=O)[C@H](C)NC(=O)[C@H](CO)NC(=O)[C@H](CC(C)C)NC(=O)[C@H](CCC(N)=O)NC(=O)[C@H](CC)NC(=O)[C@H](CC(C)C)NC(=O)[C@@H](NC(=O)[C@H](CCCN)NC(=O)[C@H](CCCNC(=N)N)NC(=O)[C@H](Cc1ccc(O)cc1)NC(=O)[C@H](CO)NC(=O)[C@H](CC(N)=O)NC(=O)[C@@H](NC(=O)[C@H](Cc1ccccc1)NC(=O)[C@@H](NC(=O)[C@H](C)NC(=O)[C@H](CC(=O)O)NC(=O)[C@@H](C)NC(=O)[C@H](Cc1ccc(O)cc1)NC)[C@@H](C)CC)[C@@H](C)O)C(C)C)[C@@H](C)CC)C(=O)N[C@@H](CC(=O)O)C(=O)NCCCCNC(=N)N is recorded as 244 ± 25.1 ng/mL (GH release, ELISA; male Sprague-Dawley rat, anaesthetised, serum; subcutaneous, 3 µg/kg, 15 min).
Cc1cc2c(cc1C1(c3ncc(C(=O)O)cn3)CC1)C(C)(C)CCC2(C)C: “log2 fold change” -0.41 (RNA sequencing, measured: Nmu; rat, brain; dose not given, 24 h; baseline: vehicle).
COc1cc2nc(N3CCN(C(=O)C4CC5(CC5)CO4)CC3)nc(N)c2cc1OC (centres unmarked): “systolic blood pressure decrease” “increased” (male SHR rat; oral, 3 mg/kg, 15 min; baseline: terazosin).
Cc1cc(O)c(C=O)c2c1C(=O)Oc1c(CO)c(O)c3c(c1O2)C(O)OC3=O (centres unmarked) gave a serum insulin of 5.98 ± 0.13 mIU/L (streptozotocin-induced diabetic male rats, serum; 5 mg/kg, 9 weeks).
CCCC[C@H](NC(=O)[C@@H](NC(=O)[C@H](CC(=O)O)NC(=O)[C@H](CCC(N)=O)NC(=O)[C@H](CC(C)C)NC(=O)[C@H](CC(C)C)NC(=O)[C@H](CCCN)NC(=O)[C@H](CCCNC(=N)N)NC(=O)[C@H](C)NC(=O)[C@H](CO)NC(=O)[C@H](CC(C)C)NC(=O)[C@H](CCC(N)=O)NC(=O)[C@H](CC)NC(=O)[C@H](CC(C)C)NC(=O)[C@@H](NC(=O)[C@H](CCCN)NC(=O)[C@H](CCCNC(=N)N)NC(=O)[C@H](Cc1ccc(O)cc1)NC(=O)[C@H](CO)NC(=O)[C@@H](NC(=O)[C@@H](NC(=O)[C@H](Cc1ccccc1)NC(=O)[C@@H](NC(=O)[C@H](C)NC(=O)[C@H](CC(=O)O)NC(=O)[C@@H](C)NC(=O)[C@H](Cc1ccc(O)cc1)NC)[C@@H](C)CC)[C@@H](C)O)[C@@H](C)O)C(C)C)[C@@H](C)CC)C(=O)N[C@@H](CC(=O)O)C(=O)N[C@@H](CCCNC(=N)N)C(=O)NC: “serum GH level” 334 ± 54 ng/mL (GH release, ELISA; male Sprague-Dawley rat, anaesthetised, serum; subcutaneous, 3 µg/kg, 15 min).
For CN(C)c1ccc(-c2oc3ccccc3c(=O)c2OCc2ccccc2)cc1, “serum total cholesterol” read 136 ± 4.7 mg/dL (diabetic rat; 5 mg/kg, 28 days, p-nitrophenyl β-glucoside induced).
CCCC[C@H](NC(=O)[C@@H](NC(=O)[C@H](CC(=O)O)NC(=O)[C@H](CCC(N)=O)NC(=O)[C@H](CC(C)C)NC(=O)[C@H](CC(C)C)NC(=O)[C@H](CCCN)NC(=O)[C@H](CCCNC(=N)N)NC(=O)[C@H](C)NC(=O)[C@H](CO)NC(=O)[C@H](CC(C)C)NC(=O)[C@H](CCC(N)=O)NC(=O)[C@H](CC)NC(=O)[C@H](CC(C)C)NC(=O)[C@@H](NC(=O)[C@H](CCCN)NC(=O)[C@H](CCCNC(=N)N)NC(=O)[C@H](Cc1ccc(O)cc1)NC(=O)[C@H](CO)NC(=O)[C@H](CCC(N)=O)NC(=O)[C@@H](NC(=O)[C@H](Cc1ccccc1)NC(=O)[C@@H](NC(=O)[C@H](C)NC(=O)[C@H](CC(=O)O)NC(=O)[C@H](C)NC(=O)CCc1ccc(O)cc1)[C@@H](C)CC)[C@@H](C)O)C(C)C)[C@@H](C)CC)C(=O)N[C@@H](CC(=O)O)C(=O)NCCCCNC(=N)N: “serum GH level” 33.2 ± 2.8 ng/mL (GH release, ELISA; male Sprague-Dawley rat, anaesthetised, serum; subcutaneous, 3 µg/kg, 0 min).
Clc1ccc(C(c2c[nH]c3ccccc23)c2c[nH]c3ccccc23)cc1 — result for “loss of TH+ fibres”: 62.9% and 63% (mice, MPTP/probenecid Parkinson model, striatum; oral, 25 mg/kg daily, 14 days; baseline: saline control).
Under “fasting blood glucose”, CC[C@H]1[C@@H](O)[C@@H]2[C@H](CC[C@]3(C)[C@@H]([C@H](C)CCOS(=O)(=O)[O-])CC[C@@H]23)[C@@]2(C)CC[C@@H](O)C[C@@H]12.[Na+] is recorded as 8 ± 0.3 mmol/L (ob/ob NASH mouse model; oral, 10 mg/kg once daily, week 4).
CCCC[C@H](NC(=O)[C@@H](NC(=O)[C@H](CC(=O)O)NC(=O)[C@H](CCC(N)=O)NC(=O)[C@H](CC(C)C)NC(=O)[C@H](CC(C)C)NC(=O)[C@H](CCCN)NC(=O)[C@H](CCCNC(=N)N)NC(=O)[C@H](C)NC(=O)[C@H](CO)NC(=O)[C@H](CC(C)C)NC(=O)[C@H](CCC(N)=O)NC(=O)[C@H](CC)NC(=O)[C@H](CC(C)C)NC(=O)[C@@H](NC(=O)[C@H](CCCN)NC(=O)[C@H](CCCNC(=N)N)NC(=O)[C@H](Cc1ccc(O)cc1)NC(=O)[C@H](CO)NC(=O)[C@H](CC(N)=O)NC(=O)[C@@H](NC(=O)[C@H](Cc1ccccc1)NC(=O)[C@@H](NC(=O)[C@H](C)NC(=O)[C@H](CC(=O)O)NC(=O)[C@@H](CC)NC(=O)CCc1ccc(O)cc1)[C@@H](C)CC)[C@@H](C)O)C(C)C)[C@@H](C)CC)C(=O)N[C@@H](CO)C(=O)N[C@@H](CCCNC(=N)N)C(=O)NCCCC(N)=O: “serum GH level” 25.7 ± 6.3 ng/mL (GH release, ELISA; male rat, anaesthetised, serum; intravenous, 1 µg/kg, 0 min).
COc1ccc(-c2oc3ccccc3c(=O)c2OCc2ccccc2)cc1: “serum LDL cholesterol” 102 ± 3.19 mg/dL (diabetic rat; 5 mg/kg, 28 days, p-nitrophenyl β-glucoside induced).
CCCCSc1nnc(-c2ccc(N)cc2)o1 — result for “DPPH radical scavenging”: 48.5% (IC50).
CCCC[C@H](NC(=O)[C@@H](NC(=O)[C@H](CC(=O)O)NC(=O)[C@H](CCC(N)=O)NC(=O)[C@H](CC(C)C)NC(=O)[C@H](CC(C)C)NC(=O)[C@H](CCCN)NC(=O)[C@H](CCCNC(=N)N)NC(=O)[C@H](C)NC(=O)[C@H](CO)NC(=O)[C@H](CC(C)C)NC(=O)[C@H](CCC(N)=O)NC(=O)[C@H](CC)NC(=O)[C@H](CC(C)C)NC(=O)[C@@H](NC(=O)[C@H](CCCN)NC(=O)[C@H](CCCNC(=N)N)NC(=O)[C@H](Cc1ccc(O)cc1)NC(=O)[C@H](CO)NC(=O)[C@H](CCC(N)=O)NC(=O)[C@@H](NC(=O)[C@H](Cc1ccccc1)NC(=O)[C@@H](NC(=O)[C@H](C)NC(=O)[C@H](CC(=O)O)NC(=O)[C@@H](C)NC(=O)[C@H](Cc1ccc(O)cc1)NC)[C@@H](C)CC)[C@@H](C)O)C(C)C)[C@@H](C)CC)C(=O)N[C@@H](CC(=O)O)C(=O)N[C@@H](CCCNC(=N)N)C(=O)NC: “serum GH level” 268 ± 21.1 ng/mL (GH release, ELISA; male rat, anaesthetised, serum; intravenous, 1 µg/kg, 15 min).
Under “retinal vascular layer thickness”, CC[C@H](C)[C@H](NC(=O)[C@H](C)NC(=O)[C@H](CS)NC(=O)[C@@H]1CCCN1)C(=O)N[C@@H](Cc1c[nH]c2ccccc12)C(=O)N[C@@H](Cc1ccccc1)C(=O)O is recorded as 44 ± 3.9 µm (C57BL/6 mice with oxygen-induced retinopathy; intravitreal, 30 µg, P15 to P17).
Cc1ccc(C(=O)Nc2cccc(C(F)(F)F)c2)cc1Nc1nc(-c2cccnc2)nc2c1cnn2C — result for angiogenesis: “inhibited” (VEGF-induced vascularization; mouse, VEGF agar chamber implant; oral, 3 mg/kg daily, 4 days, with: VEGF 2 µg).
For CCNC(=O)[C@@H]1CCCN1C(=O)[C@H](CCCNC(=N)N)NC(=O)[C@H](CC(C)C)NC(=O)[C@@H](CC(C)C)NC(=O)[C@H](Cc1ccc(O)cc1)NC(=O)[C@H](CO)NC(=O)[C@H](Cc1c[nH]c2ccccc12)NC(=O)[C@H](Cc1c[nH]cn1)NC(=O)[C@@H]1CCC(=O)N1, “duration of testosterone suppression” read 35 days (Sprague-Dawley rat, serum; subcutaneous, 100 µg/kg/day, 35 days).

Repeated from above:
CCCC[C@H](NC(=O)[C@@H](NC(=O)[C@H](CC(=O)O)NC(=O)[C@H](CCC(N)=O)NC(=O)[C@H](CC(C)C)NC(=O)[C@H](CC(C)C)NC(=O)[C@H](CCCN)NC(=O)[C@H](CCCNC(=N)N)NC(=O)[C@H](C)NC(=O)[C@H](CO)NC(=O)[C@H](CC(C)C)NC(=O)[C@H](CCC(N)=O)NC(=O)[C@H](CC)NC(=O)[C@H](CC(C)C)NC(=O)[C@@H](NC(=O)[C@H](CCCN)NC(=O)[C@H](CCCNC(=N)N)NC(=O)[C@H](Cc1ccc(O)cc1)NC(=O)[C@H](CO)NC(=O)[C@H](CCC(N)=O)NC(=O)[C@@H](NC(=O)[C@H](Cc1ccccc1)NC(=O)[C@@H](NC(=O)[C@H](C)NC(=O)[C@H](CC(=O)O)NC(=O)[C@@H](C)NC(=O)[C@H](Cc1ccc(O)cc1)NC)[C@@H](C)CC)[C@@H](C)O)C(C)C)[C@@H](C)CC)C(=O)N[C@@H](CC(=O)O)C(=O)N[C@@H](CCCNC(=N)N)C(=O)NC: “serum GH level” 268 ± 21.1 ng/mL (GH release, ELISA; male rat, anaesthetised, serum; intravenous, 1 µg/kg, 15 min).
Under “retinal vascular layer thickness”, CC[C@H](C)[C@H](NC(=O)[C@H](C)NC(=O)[C@H](CS)NC(=O)[C@@H]1CCCN1)C(=O)N[C@@H](Cc1c[nH]c2ccccc12)C(=O)N[C@@H](Cc1ccccc1)C(=O)O is recorded as 44 ± 3.9 µm (C57BL/6 mice with oxygen-induced retinopathy; intravitreal, 30 µg, P15 to P17).
